Measured values of several laboratories.
“And” joins repeats or separate records; there may be more than shown. ± marks the error that the study gave.

Under “time of secondary peak”, `Cc1cc(OCC(=O)O)cc(C)c1Cc1ccc(O)c(C(C)C)c1` is recorded as roughly 8 h (C57BL/6 mouse, serum; oral, 30.5 µmol/kg, enterohepatic circulation).
The terminal half-life of `CCCCCCCCCCCCCCCCCCOP(=O)([O-])OC1CC[N+](C)(C)CC1` is reported as 195 h (rhesus monkey, male, plasma; oral, 7 mg/kg, single dose, mean of 3).
The AUC(0-∞) of `CC(C)NC[C@@H](C(=O)N1CCN(c2ncnc3c2[C@H](C)C[C@H]3O)CC1)c1ccc(Cl)cc1` is reported as 1030 ng·h/mL (human, Moderate hepatic function, plasma; oral, 100 mg single dose, NCI classification, geometric mean).
`N=C(N)NC(=O)c1cnn(-c2cccc3ncccc23)c1C1CC1` has a CLint of 84.4 ± 2.75 mL/min/kg (guinea pig Hartley male, hepatic S9; 1 µM, pH 7.4, added: without NADPH).
Under “recovery in washout”, `CC(=O)N[C@H](CSSC[C@H](N)C(=O)O)C(=O)N[C@H](C)C(=O)N[C@H](CCCNC(=N)N)C(=O)N[C@H](CCCNC(=N)N)C(=O)N[C@H](CCCNC(=N)N)C(=O)N[C@H](C)C(=O)N[C@H](CCCNC(=N)N)C(N)=O` is recorded as 3.3% (in vitro hemodialysis; Solvable washout; 2 h; baseline: dose).
`Nc1nc2c(ncn2COCCO)c(=O)[nH]1` gave a Papp of 2.7 ± 0.17 ×10⁻⁶ cm/s (excised rabbit cornea; 1 mM, 3 h, pH 7.4, added: L-arginine 5 mM).
The plasma concentration of `S=C(NCCCc1c[nH]cn1)NCCCN(Cc1ccc(Cl)c(Cl)c1)c1ccc(Br)cn1` is reported as 2870 ng/mL (male C57BL/6 mice, plasma; intraperitoneal, 30 mg/kg, 2 h).
For `C[C@]12CC[C@@H]3c4ccc(O)cc4CC[C@H]3[C@@H]1C[C@@H](O)[C@@H]2O`, “mean serum concentration” read 0.0283 ng/mL (GC-MS; breast cancer women on NSAI, serum; vaginal, 0.03 mg, 4 h, day 0).
`CCN(CC)CCNC(=O)c1c(C)[nH]c(/C=C2\C(=O)Nc3ccc(F)cc32)c1C` has a Cmin of 77 ng/mL (human, plasma; oral, 50 mg daily, added: everolimus 30 mg weekly).
`CS(=O)(=O)OC[C@H](O)[C@@H](O)COS(C)(=O)=O` — result for “RBC/plasma partition coefficient”: 0.66 and 0.75 and 0.84 (Wistar rat, male, red blood cells and plasma; intraperitoneal, 500 mg/kg, 1 h).
With `C[C@@H](c1ncncc1F)[C@](O)(Cn1cncn1)c1ccc(F)cc1F` the trough concentration was 1380 ng/mL (patients, hematological disorders, CYP2C19 normal metabolizers, plasma; 200 mg, 12 h, steady state, median).
With `CC1=C2C[C@H]3[C@@H](CC[C@@H]4C[C@H](NS(C)(=O)=O)CC[C@@]43C)[C@@H]2CC[C@@]2(C1)O[C@@H]1C[C@H](C)CN[C@H]1[C@H]2C` the Cmax was 5.44 ng/mL (patients, plasma; oral, 30 mg single, day -7, cycle 1).
`Cc1c2c(n(-c3ccc(Cl)cc3Cl)c1-c1ccc(OS(=O)(=O)CCC(F)(F)F)cc1)CCN(N1CCCCC1)C2=O` gave a plasma concentration of 252 nM (LC-MS/MS; cynomolgus monkey 5, plasma; intravenous infusion, 0.6 mg/kg, 90 min, total concentration mid-point of PET).
For `C=CC(=C)CC[C@]1(C)[C@H](C)C[C@H](OC(=O)CCCCCCCCC)[C@@]23C(=C[C@H](OC(C)=O)C[C@@H]12)[C@@H](OC(C)=O)O[C@H]3OC(C)=O`, the haemolysis was 10% (haemolysis; 100 µM).
With `Cl.Cl.Clc1cc(Br)ccc1-c1ccc(CNCC2CCNCC2)o1` the maximum solubility was 300 µM (0.1 M sodium acetate with 0.01% Triton X-100; pH 5.5).
`CCCC[C@@H]1NC(=O)[C@@H](NC(=O)[C@H](CCC(=O)O)NC(=O)CNC(=O)CN2CCN(CC(=O)O)CCN(CC(=O)O)CCN(CC(=O)O)CC2)CCCCNC(=O)C[C@@H](C(N)=O)NC(=O)[C@H](C(C)C)NC(=O)[C@@H]2CCCN2C(=O)[C@H](CCCNC(=N)N)NC(=O)CNC(=O)[C@H](Cc2c[nH]c3ccccc23)NC(=O)[C@H](CCCNC(=N)N)NC(=O)[C@@H](Cc2ccccc2)NC(=O)[C@H](Cc2c[nH]cn2)NC(=O)[C@H](CCC(=O)O)NC1=O` [indium-111 labelled] gave a tissue uptake of 0.03 ± 0.02 %ID/g (normal C57 mice, lung; intravenous, 0.037 MBq, 24 h).
With `O=c1[nH]cc(F)c(=O)[nH]1` the Css was 439 ± 172 ng/mL (patients, plasma; intravenous, 2400 mg/m2 maintenance, cycle 1, once-daily cohort, no vorinostat).
The trough concentration of `COc1cc(Nc2ncc3c(n2)-c2ccc(Cl)cc2C(c2c(F)cccc2OC)=NC3)ccc1C(=O)O` is reported as 530 nM (children, UGT1A1 extensive metabolizers, grade ≥2 toxicity, plasma; oral, 80 mg/m2, day 4, median).
For `CC1(C)CCc2c(-c3ccc(O[11CH3])cc3F)cc(C(N)=O)nc2O1`, the unbound fraction was 0.131 ± 0.006 (female cynomolgus monkey, arterial plasma; baseline).
For `Cc1nc2cccc(OCC(C)(C)C(=O)NC(C)C)c2c(N)c1C(=O)O`, the half-life was 0.94 h (male Sprague-Dawley rat, plasma; oral gavage, 30 mg/kg, day 7).
For `CS(=O)(=O)c1ccc2c(c1)C(=O)CCc1ccccc1C(=O)N2`, the kinetic solubility was greater than 100 µg/mL (nephelometry; aqueous buffer; 30 min, pH 6.5).
`CNc1nc(Nc2ccc(-n3cnc(C)n3)c(OC)c2)nc2c1CC[C@H]2c1ccc(F)cc1` has an AUC(0-t) of 9080 ng·h/mL (human, plasma; oral, 100 mg, multiple doses, once daily).
For `CC1(COc2ccc3c(c2)ncn3-c2ccc3cccc(N4CCC(N)CC4)c3n2)COC1`, AUC(0-48h) read “no effect” (human; oral, 100 mg/m2, first dose, crushed in applesauce; baseline: whole tablets).
The parent remaining of `CN[C@@H]1[C@H](O)[C@H](NC)[C@H]2O[C@]3(O)[C@H](O[C@@H]2[C@H]1O)O[C@H](C)C[C@H]3NC(=O)Cc1cc(Cl)ccn1` is reported as 98.7% (glutathione conjugation; human liver S9; 100 µM, 2 h, pH 7.4, added: glutathione 0.2 mM).
With `O=C(O)c1ccc2c(c1)C(=O)CCc1ccccc1C(=O)N2` the kinetic solubility was greater than 100 µg/mL (nephelometry; aqueous buffer; 30 min, pH 6.5).
The MRT(0-t) of `O=C(/C=C/c1ccc(O)c(O)c1/C=C/c1ccc(O)c(O)c1)O[C@H](Cc1ccc(O)c(O)c1)C(=O)O` is reported as 7.7 ± 3.21 h (UPLC-MS/MS; Wistar rat, microcirculation dysfunction model, plasma; oral, 100 mg/kg Salvia miltiorrhiza stem-leaf extract FT).
`CC#CCn1c(N2CCC[C@@H](N)C2)nc2c1c(=O)n(Cc1nc(C)c3ccccc3n1)c(=O)n2C` has an AUC of 25300 ng·h/mL (male ICR mouse, kidney; oral, 3 mg/kg, 24 h).
With `Cn1c(-c2ccc(C(N)=O)cc2F)nnc1C(C)(C)Oc1c(F)cc(Cl)cc1F` the half-life range was 19.1 to 32 h (healthy young Japanese subjects, plasma; oral, 10 mg once daily, day 18, 14 days dosing).
The AUC(0-12h) of `CCCOc1ccc([C@H]2CNC(=O)N2c2ccc3[nH]cnc3c2)cc1` is reported as 680 ng·h/mL (human volunteers fasted, plasma; oral solution, 100 mg single dose, day 1, geometric mean).
The AUC(0-12h) of `CS(=O)(=O)Nc1ccc(C(=O)O[C@@H](Cc2c(Cl)c[n+]([O-])cc2Cl)c2ccc(OC(F)F)c(OCC3CC3)c2)cc1OCC1CC1` is reported as 8.14 ng·h/mL (human, plasma; inhalation, 2000 µg twice daily, day 1, geometric mean).
`C[N+]1(CC(=O)OC2CCCCCCCCC2)CCCCC1.[I-]` gave an aqueous solubility of 181 µM (phosphate buffer with 2% DMSO; 90 min, pH 7.4, theoretical maximum 200 µM).
`CC(C)[C@H](NC(=O)[C@@H]1CCCN1C(=O)[C@H](CCCNC(=N)N)NC(=O)[C@H](CS)NC(=O)[C@H](Cc1c[nH]c2ccccc12)NC(=O)[C@H](CCCNC(=N)N)NC(=O)[C@@H](Cc1ccccc1)NC(=O)[C@H](Cc1c[nH]cn1)NC(=O)[C@H](CCC(=O)O)NC(=O)[C@H](CS)NC(=O)[C@H](CS)NC(=O)[C@H](CCCCN)NC(=O)[C@@H]1CC(=O)N[C@@H](CCCNC(=N)N)C(=O)N[C@@H](C(C)C)C(=O)N[C@@H](CC(=O)O)C(=O)N[C@H](Cc2ccc(O)cc2)C(=O)N1)C(N)=O` [technetium-99m labelled] has a tissue uptake of 55.7 ± 9.14 %ID/g (C57 mouse, B16/F1 melanoma, kidneys; dose not given, 2 h, added: L-lysine 15 mg co-injected).
`CCC(C)n1ncn(-c2ccc(N3CCN(c4ccc(OCC5COC(Cn6cncn6)(c6ccc(Cl)cc6Cl)O5)cc4)CC3)cc2)c1=O` (stereo not shown) — result for gilteritinib exposure: “increased” (Sprague Dawley rat; 20 mg/kg, CYP3A4 inhibition, added: gilteritinib 10 mg/kg oral; baseline: gilteritinib alone).
`CC(=O)N[C@H](CCCCN)C(=O)N[C@H](CC(C)C)C(=O)N[C@@H](CCN)C(=O)N[C@H](CO)C(=O)N[C@H](CC(C)C)C(=O)N[C@H](CC(C)C)C(=O)N[C@@H](CCN)C(=O)N[C@@H](C(=O)N[C@H](CC(C)C)C(=O)N[C@H](CO)C(=O)N[C@@H](CCN)C(=O)N[C@H](C)C(=O)N[C@H](CCCCN)C(=O)N[C@H](C)C(=O)N[C@H](C)C(=O)N[C@H](CCCCN)C(=O)N[C@H](CC(C)C)C(=O)N[C@@H](CCN)C(=O)N[C@@H](C(=O)N[C@H](CC(C)C)C(=O)N[C@H](CC(C)C)C(=O)N[C@@H](CCN)C(=O)N[C@H](C)C(=O)N[C@H](CC(C)C)C(=O)N[C@H](CO)C(=O)N[C@@H](CCN)C(N)=O)[C@H](C)O)[C@H](C)O` gave a self-association parameter of 0 min (RP-HPLC temperature profiling; pH 2; baseline: random coil control).
With `CO[C@H]1C[C@@H]2CC[C@@H](C)[C@@](O)(O2)C(=O)C(=O)N2CCCC[C@H]2C(=O)O[C@H]([C@H](C)C[C@@H]2CC[C@@H](OP(C)(C)=O)[C@H](OC)C2)CC(=O)[C@H](C)/C=C(\C)[C@@H](O)[C@@H](OC)C(=O)[C@H](C)C[C@H](C)/C=C/C=C/C=C/1C` the t1/2 was 55.8 ± 4.85 h (Japanese patients, whole blood; oral, 40 mg, day 1).
The Vd/F of `O=C(O)C[C@H](O)C[C@H](O)/C=C/c1c(C2CC2)nc2ccccc2c1-c1ccc(F)cc1` is reported as 10.9 ± 3.36 L/kg (male Sprague-Dawley rat (wild type); oral, 5 mg/kg).
`CCCCCCCCCCCCCNCC(=O)N(CCCCCC)CC(=O)N(CCCCN)CC(=O)N(CCN)CC(=O)N(CCCCCC)CC(N)=O`: “acetonitrile at elution” 73.3% (preparative RP-HPLC C18; water to acetonitrile gradient; 0.05% TFA in eluent; higher = more hydrophobic).
For `CN[C@H](CC(C)C)C(=O)N[C@H]1C(=O)N[C@@H](CC(N)=O)C(=O)N[C@H]2C(=O)N[C@H]3C(=O)N[C@H](C(=O)N[C@H](C(=O)O)c4cc(O)cc(O)c4-c4cc3ccc4O)[C@H](O)c3ccc(c(Cl)c3)Oc3cc2cc(c3O[C@@H]2O[C@H](CO)[C@@H](O)[C@H](O)[C@H]2O[C@H]2C[C@](C)(N)[C@H](O)[C@H](C)O2)Oc2ccc(cc2Cl)[C@H]1O`, “time above MIC” read 433 min (microdialysis; pig (Danish Landrace), subcutaneous adipose tissue; iv infusion, 1000 mg over 100 min, MIC 2.0 µg/mL, added: meropenem co-administered).
For `CCOc1ccc(Cc2cc([C@@H]3S[C@H](CO)[C@@H](O)[C@H](O)[C@H]3O)c(OC)cc2C)cc1`, “elimination rate constant” read 1.88e-05 ± 3.28e-06 s⁻¹ (human, plasma; oral, 5 mg/day, day 1, multiple dose before breakfast).
`Cn1ncnc1[C@H]1c2n[nH]c(=O)c3cc(F)cc(c23)N[C@@H]1c1ccc(F)cc1`: “freeze-thaw stability deviation” -1.96% (mouse plasma; 80 ng/mL, three freeze-thaw cycles).
